Experimental data collected from several papers.
Each line is one published result; not all experiments were run side by side. “And” joins repeats or separate records; there may be more than shown. ± gives the spread as reported. In brackets after ≈: the same amount, converted by molar mass.

| SMILES | tested on | assay | system | conditions | scale | quantity | result |
| --- | --- | --- | --- | --- | --- | --- | --- |
| O=S(=O)(c1ccc(-c2ccc3ncnc(Nc4ccc(O)c(Cl)c4)c3c2)cc1)N1CCOCC1 | Leishmania major | intracellular amastigote growth, luciferase | RAW264.7 macrophages | – | – | EC50 | > 15 µM |
| COC1OC(C)C(OS(=O)(=O)O)C(OC2OC(C)C(OS(=O)(=O)O)C(OC3OC(C)C(OS(=O)(=O)O)C(OC4OC(C)C(OS(=O)(=O)O)C(OC5OC(C)C(OS(=O)(=O)O)C(OC6OC(C)C(OS(=O)(=O)O)C(OC7OC(C)C(OS(=O)(=O)O)C(OC8OC(C)C(OS(=O)(=O)O)C(OC9OC(C)C(OS(=O)(=O)O)C(OC%10OC(C)C(OS(=O)(=O)O)C(OS(=O)(=O)O)C%10OS(=O)(=O)O)C9OS(=O)(=O)O)C8OS(=O)(=O)O)C7OS(=O)(=O)O)C6OS(=O)(=O)O)C5OS(=O)(=O)O)C4OS(=O)(=O)O)C3OS(=O)(=O)O)C2OS(=O)(=O)O)C1OS(=O)(=O)O (stereo not shown) | RAW264.7 | CCK-8 | – | concentration not given, 24 h, low concentration | relative to: untreated cells | viability | 117% and 135% and 132% |
| COc1ccc2ncc(F)c(C(O)C[C@H]3OC[C@H](NCc4ccc(Cl)c(Cl)c4)CO3)c2n1 (stereo partly shown) | THP-1 | cytotoxicity | – | – | – | IC50 | 27.9 mg/L (≈ 57.8 µM) |
| O=C(/C=C/c1ccc(O)cc1)OC(CO)C(=O)O (stereo not shown) | HeLa, SW480 and HCT-116 | CCK-8 | – | 80 µM, 24 h | – | cytotoxicity | not toxic |
| C[n+]1ccc(/C=N/NC(=O)C(=O)N/N=C/c2cc[n+](C)cc2)cc1 | hp2 hairpin duplex DNA | FRET melting | – | 1 µM, with: ds26 10 µM | – | ΔTm | 0.3 ± 0.2 °C |
| COc1ccc2nccc(CC[C@H]3OC[C@H](NC(=O)c4ccc(Cl)c(Cl)c4)CO3)c2c1 | THP-1 | cytotoxicity | – | – | – | IC50 | 8.38 mg/L (≈ 18.2 µM) |
| Cc1cccnc1-c1csc(C(=O)Nc2cc(Cl)cc(NS(C)(=O)=O)c2)c1 | MCF-10A | cell growth or viability, ATP luminescence | – | 10 days | – | CC50 | > 10 µM |
| N#Cc1cccc(-c2ccc(=O)n(Cc3cccc(-c4ncc(OCC5CCN(CC(=O)N6CCN(c7ccc8c(c7)C(=O)N(C7CCC(=O)NC7=O)C8=O)CC6)CC5)cn4)c3)n2)c1 (stereo not shown) | Caco-2 | transwell monolayer | – | 2 µM, 120 min, pH 7.4, 0.1% DMSO, with: tariquidar 5 µM | – | Papp B-A | 0.4 ± 0.1 nm/s |
| CN1CCCNC(=O)c2cccc(c2)C(=O)NCCCN(C)CCCNc2cccc3c2C(=O)c2cccc(c2C3=O)NCCC1 | NHEK | CCK-8 | – | 1.5 µM, 48 h | relative to: untreated | viability | 62.2% |
| CC[n+]1cccc2cc(/C=N/NC(=O)N/N=C/c3ccc4c(ccc[n+]4CC)c3)ccc21 | hp2 hairpin duplex DNA | FRET melting | – | 1 µM | – | ΔTm | 2.2 ± 0.5 °C |
| Cc1ccc2c(c1)C1CC(C)(N2)c2c(C)nc3ccc(C)cc3c21 (stereo not shown) | Huh-7 | cell growth or viability, MTT | – | – | – | CC50 | 7.5 µM |
| CC[C@H](C)[C@@H](C(=O)N[C@@H](Cc1ccc(O)cc1)C(=O)N1CCC[C@H]1C(=O)N[C@@H](Cc1ccccc1)C(=O)O)n1cc(C(Cc2ccc(O)cc2)NC(=O)[C@@H](NC(=O)[C@H](CCCNC(=N)N)NC(=O)[C@@H](N)CC(=O)O)C(C)C)nn1 (stereo partly shown) | Caco-2 | cell growth or viability, MTT | – | 25 µM, 48 h | – | viability | 93% |
| CC(=O)OC[C@H]1O[C@@H]([Se]C(=O)c2ccc([N+](=O)[O-])cc2)[C@H](OC(C)=O)[C@@H](OC(C)=O)[C@@H]1OC(C)=O | THP-1 macrophages (PMA-differentiated) | WST-1 | – | 25 µM, 24 h | – | viability | 32 ± 6.2% |
| Cc1cc(C)nc(NC(=S)N2CCN(c3ccncc3)CC2)c1 | MDA-MB-231 | cell viability, CellTiter-Glo | – | 4 days | – | EC50 | > 100 µM |
| COC1OC(C)C(OC2OC(C)C(O)C(OC3OC(C)C(OC4OC(C)C(O)C(OC5OC(C)C(OC6OC(C)C(O)C(OC7OC(C)C(OC8OC(C)C(O)C(OS(=O)(=O)O)C8OS(=O)(=O)O)C(OS(=O)(=O)O)C7OS(=O)(=O)O)C6OS(=O)(=O)O)C(OS(=O)(=O)O)C5OS(=O)(=O)O)C4OS(=O)(=O)O)C(OS(=O)(=O)O)C3OS(=O)(=O)O)C2OS(=O)(=O)O)C(OS(=O)(=O)O)C1OS(=O)(=O)O (stereo not shown) | NIH 3T3 | CCK-8 | – | concentration not given, 24 h, low concentration | relative to: untreated cells | viability | 95.7% and 98% and 98.4% |
| COc1ccc2nccc(CC[C@H]3OC[C@H](NC(=O)c4ccc5c(c4)NC(=O)CO5)CO3)c2c1 | THP-1 | cytotoxicity | – | – | – | IC50 | > 100 mg/L |
| CN1CCN(S(=O)(=O)c2ccc(-c3ccc4ncnc(Nc5ccc(Cl)cc5)c4c3)cc2)CC1 | Leishmania major | intracellular amastigote growth, luciferase | RAW264.7 macrophages | – | – | EC50 | > 15 µM |
| CC(=O)OC[C@H]1O[C@@H]([Se]C(C)=O)[C@H](OC(C)=O)[C@@H](OC(C)=O)[C@@H]1OC(C)=O | THP-1 | cell growth or viability, WST-1 | – | 24 h | – | CC50 | > 50 µM |
| COC1OC(C)C(OS(=O)(=O)O)C(OC2OC(C)C(OS(=O)(=O)O)C(OC3OC(C)C(OS(=O)(=O)O)C(OC4OC(C)C(OS(=O)(=O)O)C(OC5OC(C)C(OS(=O)(=O)O)C(OC6OC(C)C(OS(=O)(=O)O)C(OC7OC(C)C(OS(=O)(=O)O)C(OC8OC(C)C(OS(=O)(=O)O)C(OS(=O)(=O)O)C8OS(=O)(=O)O)C7OS(=O)(=O)O)C6OS(=O)(=O)O)C5OS(=O)(=O)O)C4OS(=O)(=O)O)C3OS(=O)(=O)O)C2OS(=O)(=O)O)C1OS(=O)(=O)O (stereo not shown) | RAW264.7 | CCK-8 | – | concentration not given, 24 h, low concentration | relative to: untreated cells | viability | 96.2% and 107% and 125% |
| COc1ccc2ncc(F)c(C[C@H](O)[C@H]3OC[C@H](NCc4ccc(C)cc4)CO3)c2n1 | THP-1 | cytotoxicity | – | – | – | IC50 | 39.4 mg/L (≈ 92.2 µM) |
| Cc1cc(C)nc(NC(=S)N2CCN(c3ccc(C(F)(F)F)cn3)CC2)c1 | MDCK-MDR1 | – | – | – | – | Papp B-A | 89 ± 9 nm/s |
| CCOC(=O)c1ccc2c(c1)C1CC(C)(N2)c2c(C)nc3ccc(C(=O)OCC)cc3c21 (stereo not shown) | Huh-7 | cell growth or viability, MTT | – | – | – | CC50 | 19.9 µM |
| Cc1cc(C(=O)Nc2nc3cccc(C)c3n2[C@H]2CCCCN(C(=O)/C=C/CN(C)C)C2)ccn1 | NIH 3T3 | cytotoxicity | – | 4 days, mean value | – | CC50 | 9.66 µM |
| Cl.NCc1ccc2c(c1)CN(C1CCC(=O)NC1=O)C2=O (stereo not shown) | Hep3B | – | – | concentration not given, 72 h | – | minimum viability | 24.6% and 25% |
| CC(=O)OC[C@H]1O[C@@H]([Se]c2ccc([N+](=O)[O-])cc2[N+](=O)[O-])[C@H](OC(C)=O)[C@@H](OC(C)=O)[C@@H]1OC(C)=O | THP-1 | cell growth or viability, WST-1 | – | 24 h | – | CC50 | > 25 µM |
